{"data": "Published values pooled from the literature", "note": "A part holds a random share of what one study measured. Changes are numbered by the printed parent chain."}
{"data": "Block 1", "target": "CCNA1, cyclin fold, Cln2 fusion (human)", "method": "yeast growth competition, sequencing", "sample": "yeast", "setting": "weak parent motif", "baseline": "not given", "direction": "higher = stronger binding", "parent": "CDC6 docking peptide (human); TLKGRRLVFDNQL"}
{"Variant": "TLKGRRLVDDNQL [F9D]", "normalised enrichment score": 0.268}
{"Variant": "TLKGRRLVFDNQM [L13M]", "normalised enrichment score": 0.233}
{"Variant": "TLWGRRLVFDNQL [K3W]", "normalised enrichment score": -0.199}
{"Variant": "KLKGRRLVFDNQL [T1K]", "normalised enrichment score": 0.661}
{"Variant": "TLFGRRLVFDNQL [K3F]", "normalised enrichment score": -0.0078}
{"data": "Block 2", "target": "RING finger protein unkempt homolog, zinc fingers 1-6, GST-SBP tag (UNK, Homo sapiens, UniProt Q9C0B0, residues 30-357)", "method": "RNA Bind-n-Seq", "molecule type": "RNA", "sample": "in vitro", "concentration": "not given", "setting": "RNA with constant flanks, ends assumed", "baseline": "input RNA pool", "direction": "higher = stronger binding", "shared flanks, not repeated": "GGGAGUUCUACAGUCCGACGAUC … CAACAGAGGAUUGAGCAUCA", "chain of UniProt Q9C0B0 (30-357, looked up)": "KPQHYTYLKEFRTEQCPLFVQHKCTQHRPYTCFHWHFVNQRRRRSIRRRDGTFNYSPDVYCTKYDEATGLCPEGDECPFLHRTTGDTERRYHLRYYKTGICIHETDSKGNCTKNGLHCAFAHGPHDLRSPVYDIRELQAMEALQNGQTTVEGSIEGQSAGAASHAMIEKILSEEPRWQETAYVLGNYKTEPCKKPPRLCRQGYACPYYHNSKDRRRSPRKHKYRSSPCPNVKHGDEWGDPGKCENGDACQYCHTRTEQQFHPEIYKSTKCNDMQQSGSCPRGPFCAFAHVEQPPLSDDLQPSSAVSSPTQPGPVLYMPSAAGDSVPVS"}
{"Oligonucleotide": "AAGAAAUUAUUAAACAAAACAAGGGGGGCAAUAAAUGUAUAUAACAUUAAUAAUGUCGCGCCGGUGCCGGUUCCUGGAUGCAUUUGGAUGUACAGACUGACUGGGGGACUGUAUUGCGAU", "bound/input enrichment [ratio]": 0.808}
{"Oligonucleotide": "UUGCUGUCCAAAAUUGAUGGCGUGGAGCAGCUAAACAACAUCCUAGUCAUUGGAAUGACCAACCGACCAGAUCUGAUAGAUGAGGCUCUUCUUAGACCUGGAAGACUGGAAGUUAAAAUG", "bound/input enrichment [ratio]": 0.169}
{"Oligonucleotide": "UAUAGUGGGGUUGGUAAUUCAUCAGUUUCUGGCCAUGGUAUUCUCCCAAGCUAUCAGGAACCCGUGGAAGACCGUUUCAGGAAACCUCAUGCUUUUGCUGUGCCUGGACAGUCUUAUCAG", "bound/input enrichment [ratio]": 0.296}
{"Oligonucleotide": "AAAAAAAUGACUCAAGCCGUGUAUUUUUUAUAUUUUGAUAUACUCACUUGUGAAUUAAAGAACCGGACUAUCACUGAUAAAGUAUCAAAAUAGUAAGAGUGGCAACAUUUUGAAAAUAUU", "bound/input enrichment [ratio]": 0.533}
{"Oligonucleotide": "CUGUUUUGACAGCCACACAAUCUUGGCAUGUAUUAAGGAAAAAAAAAAUCCCUGUUGAAGCCGUUUUUCCACCUAUCAGCACUGAGUAAAUGCCAUAACUCCGCGGAAAUGGUCUAAAUA", "bound/input enrichment [ratio]": 0.195}
{"data": "Block 3", "target": "ABI1, truncated, D143A, DHFR fusion (Arabidopsis thaliana)", "method": "DHFR PCA, deep sequencing", "sample": "yeast", "setting": "methotrexate growth selection, single substitutions", "added": "(+)-ABA 1.4 µM", "baseline": "wild-type fitted maximum", "direction": "higher = stronger binding", "parent": "PYL1, truncated, DHFR fusion (Arabidopsis thaliana); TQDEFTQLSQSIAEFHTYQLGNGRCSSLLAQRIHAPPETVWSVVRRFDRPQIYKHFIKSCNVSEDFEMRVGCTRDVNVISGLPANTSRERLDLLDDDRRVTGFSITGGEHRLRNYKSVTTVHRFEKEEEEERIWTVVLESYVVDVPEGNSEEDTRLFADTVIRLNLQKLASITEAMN"}
{"Variant": "I172F", "relative binding score [%]": 1.82}
{"Variant": "T154Y", "relative binding score [%]": -35}
{"Variant": "E89W", "relative binding score [%]": 5.89}
{"data": "Single results of other studies"}
{"Substance": "PhoQ, residues 284 288 289 292 302 303 ALVSVA", "target": "PhoP, residues 12 14 15 18 19 TPWLV (Escherichia coli, UniProt P23836)", "assay": "Sort-seq, refers to: YFP reporter", "test system": "E. coli", "setting": "PhoQ-PhoP variant library, added: 10 µM Mg2+", "how to read": "baseline: high Mg2+ state, higher = stronger signaling", "quantity": "fold induction", "result": 4.44}
{"note": "A few entries again (block 1):"}
{"Variant": "TLWGRRLVFDNQL [K3W]", "normalised enrichment score": -0.199}
